Measured values pooled from the literature.
Each line is one published result; not all experiments were run side by side. Numbers after ± are the reported error. In brackets after ≈: the same amount, converted by molar mass.

With `NNC(=O)/C=C/c1ccc(N)cc1` the LC50 was 150 µg/mL (Aedes aegypti; third instar larvae).
`OC[C@H]1O[C@@H]([Se]Cc2cccc(C[Se][C@@H]3O[C@H](CO)[C@H](O)[C@H](O)[C@H]3O)c2)[C@H](O)[C@@H](O)[C@H]1O` has a viability of 99.6% (Trypanosoma brucei; parasite growth, flow cytometry; 5 µM, 24 h).
The inhibition zone of `S=C(NCc1ccccn1)NCc1ccccn1` is reported as 22 mm (Proteus vulgaris; microbial growth, well diffusion; 20 µg/mL).
With `C=Cc1cn([C@@H]2O[C@H](CO)C[C@H]2O)c2ncnc(N)c12` the EC50 was 40 ± 3 nM (Trypanosoma congolense; parasite growth, resazurin; 6C3 diminazene-resistant; 48 h plus 24 h resazurin).
`O=[N+]([O-])c1ccc(/C=N/N=C/c2ccc(O)cc2)s1`: “day of death” 9 days post-infection (Trypanosoma congolense; IL3000, mouse; intraperitoneal, 10 mg/kg daily for 7 days, from day 4 post-infection).
With `Nc1ncnc2c1c(Br)cn2[C@H]1C[C@H](O)[C@@H](CO)O1` the EC50 was 310 ± 70 nM (Trypanosoma congolense; parasite growth, resazurin; 6C3 diminazene-resistant; 48 h plus 24 h resazurin).
For `OC[C@H]1O[C@@H]([Se][Se][C@@H]2O[C@H](CO)[C@@H](O)[C@H](O)[C@H]2O)[C@H](O)[C@@H](O)[C@@H]1O`, the inhibition was 43% (Trypanosoma brucei; parasite growth, flow cytometry; 5 µM, 24 h).
`O=C(Cn1ccc(=O)c2ccccc21)N/N=C/c1cc(Br)c(O)c(Br)c1` has an inhibition of 19.5% (Sclerotinia sclerotiorum; microbial growth; 50 µg/mL).
The EC50 of `Cc1cn(C2CC(N(C)C)C(CO)O2)c(=O)[nH]c1=O` (centres unmarked) is reported as > 370 nM (coxsackievirus B4; viral replication; HeLa).
`Nc1ccn(C[C@@H](CO)OCP(=O)(O)OCCCS(=O)(=O)CCCCCCCCCCCCCC2CCC2)c(=O)n1` has a selectivity index of 89 (human gammaherpesvirus 8; qPCR; BCBL-1; relative to: CC50 over EC50).
`CC[C@H](C)CCCCC(=O)N[C@@H](CCN)C(=O)N[C@H](C(=O)N[C@@H](CCN)C(=O)N[C@H]1CCNC(=O)[C@H]([C@@H](C)O)NC(=O)[C@H](CCN)NC(=O)[C@H](CCN)NC(=O)[C@H](CC(C)C)NC(=O)[C@@H](Cc2ccccc2)NC(=O)[C@H](CCN)NC1=O)[C@@H](C)O` has a survival of 0% (lipopolysaccharide; C57BL/6 mouse, LPS endotoxemia; intravenous, 5 mg/kg, dosed 2 h after LPS, together with: LPS 20 mg/kg intraperitoneal).
`CC[C@H](C)[C@H](NC(=O)[C@H](CCCNC(=N)N)NC(=O)[C@@H]1CCCN1C(=O)[C@@H](NC(=O)[C@H](CO)NC(=O)[C@H](CCCCN)NC(=O)[C@H](CO)NC(=O)[C@H](CCC(N)=O)NC(=O)[C@H](CCCCN)NC(=O)[C@H](CC(C)C)NC(=O)[C@H](Cc1ccccc1)NC(=O)[C@H](Cc1ccccc1)NC(=O)[C@H](CC(N)=O)NC(=O)[C@H](CCC(=O)O)NC(=O)[C@H](Cc1ccccc1)NC(=O)[C@H](CC(=O)O)NC(=O)CN)C(C)C)C(N)=O`: “latency to ecdysis contractions” 8 to 9 min (Aedes aegypti; agonist; pharate pupae; intra-abdominal injection, 10 fmol, 9-12 h before ecdysis).
With `C[C@@H]1C[C@H](Nc2ccccc2)c2cc(F)ccc2N1C(=O)c1ccc(Cl)c(Cl)c1` the mortality was 75 ± 25% (Aedes albopictus; 1 µM, 72 h, second-instar larvae; relative to: Abbott-corrected control).
For `C[Se][C@@H]1O[C@H](COC(C)=O)[C@@H](OC(C)=O)[C@H](OC(C)=O)[C@H]1NC(C)=O`, the viability was 96.4 ± 13.4% (Trypanosoma brucei brucei; bloodstream form; 5 µM, 24 h, 1 % DMSO).
The MIC90 of `C[C@@](O)(C(F)F)[C@H](NC(=O)c1ccc(C#CC#CC2CC2)cc1)C(=O)NO` is reported as 0.125 µg/mL (≈ 0.332 µM) (Enterobacteriaceae; ESBL, carbapenemase positive).
For `CCn1c2ccccc2c2cc(/C=N/NC(=O)Cn3ccc(=O)c4ccccc43)ccc21`, the inactivation activity was 0% (Tobacco mosaic virus; viral infectivity, in vivo plant; 100 µg/mL).
With `C[C@@H]1C[C@H](Nc2ccccc2)c2cc(F)ccc2N1C(=O)c1ccc(Br)cc1` the mortality was 80 ± 1% (Aedes albopictus; 1 µM, 72 h, second-instar larvae; relative to: Abbott-corrected control).
`CCCCc1ccc(-c2nc(C)c(C(C)=NNC(=N)N)s2)cc1` gave an MBC of 1.3 µg/mL (Staphylococcus aureus; USA500 MRSA).
`CC[C@@H](C)[C@@H](NC(=O)[C@@H](C)NC(=O)[C@@H](CCCCN)NC(=O)[C@@H](CC(C)C)NC(=O)[C@@H](C)NC(=O)[C@H](NC(=O)[C@@H](Cc1c[nH]cn1)NC(=O)[C@@H](CC(C)C)NC(=O)[C@H](NC(=O)[C@H](NC(=O)[C@@H](CCCCN)NC(=O)[C@@H](CCCCN)NC(=O)[C@@H](C)NC(=O)[C@@H](CO)NC(=O)[C@@H](CCCCN)NC(=O)[C@@H](Cc1ccccc1)NC(=O)[C@H](NC(=O)[C@@H](CCCCN)NC(=O)[C@@H](CC(C)C)NC(=O)[C@@H](Cc1ccccc1)NC(=O)[C@@H](CO)NC(=O)[C@@H](CCCCN)NC(=O)[C@@H](Cc1c[nH]c2ccccc12)NC(=O)[C@@H](CCCCN)NC(C)=O)[C@H](C)O)[C@H](C)O)C(C)C)[C@H](C)O)C(=O)N[C@H](CO)C(=O)N[C@H](CO)C(N)=O` — result for “MIC50 geometric mean”: 28.6 µg/mL (≈ 9.56 µM) (ascomycota fungi; three species).
`CC[C@H](C)[C@H](NC(=O)[C@H](CO)NC(=O)[C@H](CO)NC(=O)[C@H](Cc1ccccc1)NC(=O)CN)C(=O)N[C@@H](Cc1ccccc1)C(=O)N[C@@H](CCCNC(=N)N)C(=O)NCC(=O)N[C@H](C(=O)N[C@@H](C)C(=O)N[C@@H](CCCCN)C(N)=O)C(C)C` has an MBC of > 128 µM (Escherichia coli; ATCC 8739; together with: 2.5 mM CaCl2).
For `CON(C(=O)c1cn(C)nc1C(F)F)C(C)Cc1c(Cl)cc(Cl)cc1Cl` (centres unmarked), the inhibition was 92% (Fusarium oxysporum; 1.56 µg/mL).
`CC[C@H](C)[C@H](NC(=O)[C@H](CO)NC(=O)[C@H](CO)NC(=O)[C@H](Cc1ccccc1)NC(=O)CN)C(=O)N[C@@H](Cc1ccccc1)C(=O)N[C@@H](CCCNC(=N)N)C(N)=O` gave an MBC of > 128 µM (Escherichia coli; ATCC 8739; together with: 150 mM NaCl).
`CC[C@H](C)[C@H](NC(=O)[C@H](CC(C)C)NC(=O)CNC(=O)[C@H](Cc1c[nH]cn1)NC(=O)[C@@H](NC(=O)[C@H](Cc1ccccc1)NC(=O)[C@H](CC(N)=O)NC(=O)[C@H](Cc1c[nH]c2ccccc12)NC(=O)[C@@H](NC(=O)[C@H](Cc1c[nH]cn1)NC(=O)CNC(=O)[C@H](Cc1c[nH]c2ccccc12)NC(=O)[C@@H](N)CC(C)C)[C@@H](C)CC)C(C)C)C(N)=O` has an IC50 of 1.43 µg/mL (≈ 0.899 µM) (Herpes simplex virus 1; viral attachment, plaque reduction; Vero, F; 1 h, 4 °C).
With `CO[C@H]1/C=C/O[C@@]2(C)Oc3c(C)c(O)c4c(c3C2=O)C2=NC3(CCN(CC(C)C)CC3)NC2=C(NC(=O)/C(C)=C\C=C\[C@H](C)[C@H](O)[C@@H](C)[C@@H](O)[C@@H](C)[C@H](OC(=O)c2ccc(C)cc2)[C@@H]1C)C4=O` the MIC ratio was 1.8 (Mycobacteroides abscessus; ATCC 19977; relative to: wild type over arr deletion).
The EC50 of `COc1ccccc1-c1n[nH]c2nc(N[C@H]3CC[C@H](NS(=O)(=O)CC(C)C)CC3)ncc12` is reported as 1.43 ± 0.01 nM (Leishmania donovani; LdBOB CRK12 + CYC9 overexpressing, promastigotes).
`CC[C@H](C)[C@H](NC(=O)[C@H](CCCCN)NC(=O)[C@H](CCCCN)NC(=O)[C@H](CC(C)C)NC(=O)[C@H](CCCCN)NC(=O)[C@H](CCC(=O)O)NC(=O)[C@H](CCCCN)NC(=O)[C@@H](NC(=O)[C@H](CCCCN)NC(=O)[C@H](CC(N)=O)NC(=O)[C@H](CCCNC(=N)N)NC(=O)[C@H](Cc1ccccc1)NC(=O)[C@H](CCCCN)NC(=O)[C@H](CCCNC(=N)N)NC(=O)[C@H](CC(C)C)NC(=O)[C@H](CCCNC(=N)N)NC(=O)[C@H](CCCCN)NC(=O)[C@H](CCCNC(=N)N)NC(=O)[C@H](CC(C)C)NC(=O)[C@@H](N)CC(C)C)[C@@H](C)CC)C(=O)NCC(=O)N[C@@H](CCC(N)=O)C(=O)N[C@@H](CCCCN)C(=O)N[C@H](C(=O)N[C@@H](CCC(N)=O)C(=O)NCC(=O)N[C@@H](Cc1ccccc1)C(=O)N[C@H](C(=O)N1CCC[C@H]1C(=O)N[C@@H](CCCCN)C(=O)N[C@@H](CC(C)C)C(=O)N[C@H](C(=O)N1CCC[C@H]1C(=O)N[C@@H](CCCNC(=N)N)C(=O)N[C@H](C(=O)N[C@@H](CCC(=O)O)C(=O)N[C@@H](CO)C(=O)O)[C@@H](C)O)C(C)C)C(C)C)[C@@H](C)CC` gave a lethal concentration of 2.02 µM (Streptococcus mutans; inhibition zone; ATCC 1.2499; LB agar, overnight).
For `C[C@@H]1C[C@H](Nc2ccccc2)c2cc(F)ccc2N1C(=O)c1ccc(Cl)c(F)c1`, the mortality was 92 ± 3% (Aedes albopictus; 1 µM, 72 h, second-instar larvae; relative to: Abbott-corrected control).
`CC(=O)CCC1C(=O)NC(C(C)C)C(=O)NC(Cc2cccc(O)c2)C(=O)N2CCCC(N2)C(=O)OC(C(C)=CC=CC(=O)N2CCCCO2)CC=CC=CC(O)C(C)C1O` (centres unmarked) gave an HBsAg level of 9.6% (hepatitis B virus; HBV DNA transfected cells; 2 µM, day 3; relative to: untreated).
With `CS(=O)(=O)c1ccc(/C=N/NC(=O)Cn2ccc(=O)c3ccccc32)cc1` the inhibition was 7.3% (Sclerotinia sclerotiorum; microbial growth; 50 µg/mL).
For `CC[C@H](C)[C@H](NC(=O)[C@@H](NC(=O)CN)C(C)C)C(=O)N[C@@H](Cc1ccccc1)C(=O)N[C@@H](CC(N)=O)C(=O)N[C@@H](C)C(=O)N[C@@H](CC(C)C)C(=O)N[C@@H](CCCCN)C(=O)NCC(=O)N[C@H](C(=O)N[C@@H](C)C(=O)N[C@@H](CCCCN)C(=O)N[C@H](C(=O)N[C@H](C(=O)N[C@@H](C)C(=O)N[C@@H](C)C(=O)N[C@@H](CCC(N)=O)C(=O)N[C@@H](CC(C)C)C(=O)N[C@@H](CC(C)C)C(=O)N[C@@H](CCCCN)C(=O)N[C@@H](CCCCN)C(=O)N[C@@H](C)C(=O)N[C@@H](CCCNC(=N)N)C(=O)N[C@H]1CSSC[C@@H](C(=O)O)NC(=O)[C@H](CO)NC(=O)[C@H](CCCCN)NC(=O)[C@H](CC(=O)O)NC(=O)[C@H](CC(C)C)NC(=O)[C@H](CCCCN)NC1=O)C(C)C)[C@@H](C)O)C(C)C`, the MBEC was 512 µM (Staphylococcus aureus; persister cells in biofilm; MRSA NCTC 12493; together with: vancomycin 4 µg/mL).
`O=C(Nc1ccccc1Nc1ccccc1)c1cccnc1Cl` has an inhibition of 3.41% (Valsa mali; mycelial growth, mycelial growth rate method; 50 mg/L).
With `C[C@@H]1C[C@H](Nc2ccccc2)c2cc(F)ccc2N1C(=O)c1ccc(C#N)c(F)c1` the mortality was 95% (Aedes albopictus; 1 µM, 72 h, second-instar larvae; relative to: Abbott-corrected control).
For `COc1cc(/C=C/c2ccc(OC)c(O)c2)cc(OC)c1`, the MIC50 was 137 µM (≈ 39.2 µg/mL) (Streptococcus mutans; microbial growth).
`C[C@@H]1C[C@H](Nc2ccccc2)c2cc(F)ccc2N1C(=O)c1ccc(F)cc1` has an LC50 of 2090 nM (Aedes albopictus; second-instar larvae; 72 h).
The EC50 of `O=C(Cc1csc2nc(-c3ccc(Br)cc3)cn12)NN=C1CCCC1` is reported as > 100 µg/mL (Parainfluenza-3 virus; viral cytopathicity, microscopy; Vero).

A few entries again:
With `CS(=O)(=O)c1ccc(/C=N/NC(=O)Cn2ccc(=O)c3ccccc32)cc1` the inhibition was 7.3% (Sclerotinia sclerotiorum; microbial growth; 50 µg/mL).
For `C[C@@H]1C[C@H](Nc2ccccc2)c2cc(F)ccc2N1C(=O)c1ccc(Cl)c(F)c1`, the mortality was 92 ± 3% (Aedes albopictus; 1 µM, 72 h, second-instar larvae; relative to: Abbott-corrected control).
For `CC[C@H](C)[C@H](NC(=O)[C@@H](NC(=O)CN)C(C)C)C(=O)N[C@@H](Cc1ccccc1)C(=O)N[C@@H](CC(N)=O)C(=O)N[C@@H](C)C(=O)N[C@@H](CC(C)C)C(=O)N[C@@H](CCCCN)C(=O)NCC(=O)N[C@H](C(=O)N[C@@H](C)C(=O)N[C@@H](CCCCN)C(=O)N[C@H](C(=O)N[C@H](C(=O)N[C@@H](C)C(=O)N[C@@H](C)C(=O)N[C@@H](CCC(N)=O)C(=O)N[C@@H](CC(C)C)C(=O)N[C@@H](CC(C)C)C(=O)N[C@@H](CCCCN)C(=O)N[C@@H](CCCCN)C(=O)N[C@@H](C)C(=O)N[C@@H](CCCNC(=N)N)C(=O)N[C@H]1CSSC[C@@H](C(=O)O)NC(=O)[C@H](CO)NC(=O)[C@H](CCCCN)NC(=O)[C@H](CC(=O)O)NC(=O)[C@H](CC(C)C)NC(=O)[C@H](CCCCN)NC1=O)C(C)C)[C@@H](C)O)C(C)C`, the MBEC was 512 µM (Staphylococcus aureus; persister cells in biofilm; MRSA NCTC 12493; together with: vancomycin 4 µg/mL).
With `C[C@@H]1C[C@H](Nc2ccccc2)c2cc(F)ccc2N1C(=O)c1ccc(Br)cc1` the mortality was 80 ± 1% (Aedes albopictus; 1 µM, 72 h, second-instar larvae; relative to: Abbott-corrected control).
For `COc1cc(/C=C/c2ccc(OC)c(O)c2)cc(OC)c1`, the MIC50 was 137 µM (≈ 39.2 µg/mL) (Streptococcus mutans; microbial growth).
